# Measured values of several laboratories.
# Lines come from different studies, so protocols differ. Several values in a cell are separate wells, animals, samples, runs or records. Numbers after ± are the reported error.
# UniProt Q08345, sequence (whole entry, looked up): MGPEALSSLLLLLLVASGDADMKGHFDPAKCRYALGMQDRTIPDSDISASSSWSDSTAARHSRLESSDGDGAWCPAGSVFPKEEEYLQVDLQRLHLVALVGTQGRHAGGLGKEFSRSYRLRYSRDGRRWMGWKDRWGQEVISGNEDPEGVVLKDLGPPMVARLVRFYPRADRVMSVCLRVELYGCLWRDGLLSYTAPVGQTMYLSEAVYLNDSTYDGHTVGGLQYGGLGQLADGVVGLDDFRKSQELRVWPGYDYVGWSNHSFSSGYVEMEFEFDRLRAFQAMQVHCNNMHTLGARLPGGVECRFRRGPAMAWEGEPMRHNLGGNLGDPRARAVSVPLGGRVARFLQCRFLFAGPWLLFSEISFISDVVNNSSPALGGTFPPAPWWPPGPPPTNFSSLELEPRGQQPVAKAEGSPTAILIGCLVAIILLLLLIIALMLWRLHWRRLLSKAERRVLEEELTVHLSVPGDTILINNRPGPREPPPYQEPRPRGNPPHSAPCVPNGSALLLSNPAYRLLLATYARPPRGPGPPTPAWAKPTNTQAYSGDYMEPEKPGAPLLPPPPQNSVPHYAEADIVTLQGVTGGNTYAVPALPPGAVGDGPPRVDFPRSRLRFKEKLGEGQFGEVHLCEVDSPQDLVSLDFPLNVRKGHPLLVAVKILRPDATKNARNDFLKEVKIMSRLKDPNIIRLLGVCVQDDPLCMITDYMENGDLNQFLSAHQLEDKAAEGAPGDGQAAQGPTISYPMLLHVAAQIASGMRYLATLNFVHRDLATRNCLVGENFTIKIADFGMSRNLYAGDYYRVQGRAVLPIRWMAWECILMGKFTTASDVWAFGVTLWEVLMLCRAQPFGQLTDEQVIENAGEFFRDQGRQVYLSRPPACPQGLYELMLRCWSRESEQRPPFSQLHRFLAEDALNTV
Compound,target or system,test,test system,setting,how to read,quantity,result
CC(C)C[C@@H]1NC(=O)CNC(=O)[C@H](CC(N)=O)NC(=O)[C@H](CCCNC(=N)N)NC(=O)[C@H]([C@@H](C)O)NC(=O)[C@@H]2CSSC[C@@H]3NC(=O)[C@H]([C@@H](C)O)NC(=O)CNC(=O)CNC(=O)[C@H](C(C)C)NC(=O)[C@@H]4CSSC[C@H](NC(=O)[C@H]([C@@H](C)O)NC(=O)[C@H](CSSC[C@H](NC(=O)[C@H](C(C)C)NC(=O)[C@H](CCCCN)NC1=O)C(=O)NCC(=O)N[C@@H](CCC(=O)O)C(=O)N[C@@H]([C@@H](C)O)C(=O)N4)NC(=O)CNC(=O)[C@@H]1CCCN1C(=O)[C@H]([C@@H](C)O)NC(=O)[C@H](CC(N)=O)NC3=O)C(=O)N[C@@H](CO)C(=O)N[C@@H](Cc1c[nH]c3ccccc13)C(=O)N1CCC[C@H]1C(=O)N[C@@H](C(C)C)C(=O)N2,,HPLC,ammonium bicarbonate 0.1 M,"180 µM, 7 days, pH 9.0, 37 °C, deamidation stability",,remaining peptide,0%
COc1cccc2c1CCCC2CCCN1CCN(C2CCCCC2)CC1 (stereo not shown),,,"CD-1 mouse, male, plasma","intraperitoneal, 30 mg/kg",,Tmax,5 min
C=CC(=O)Nc1cc(Nc2nccc(Nc3cc(Cl)c(F)cc3C(C)(C)O)n2)c(OC)cc1N1CC[C@@H](N(C)C)C1,,,human,"oral, dose not given, phase I clinical",,patients with adverse event Fatigue,21.6%
N[C@@H]1c2ccccc2OC12CCN(c1cnc3c(N4CCCc5ncccc54)n[nH]c3n1)CC2,,,advanced metastatic solid tumour patients,"oral, 75 mg once daily",,TEAE leading to interruption,71.4%
CN[C@H]1CC[C@@H](c2ccc(Cl)c(Cl)c2)c2ccccc21,,,"CD-1 mouse, male, lung","intraperitoneal, 10 mg/kg",,elimination rate constant,5.83e-05 s⁻¹
Clc1ccc(-c2cc(Cl)c(Cl)c(Cl)c2Cl)cc1Cl,,,fresh water,"20 °C, S100 sampler, 100 µm",,log K(PDMS-water),6.41 ± 0.06
CO[C@H]1C[C@@H]2CC[C@@H](C)[C@@](O)(O2)C(=O)C(=O)N2CCCC[C@H]2C(=O)O[C@H]([C@H](C)C[C@@H]2CC[C@@H](OC(=O)NCCOCCOCCOCCOCCOCCOCCOCCOCCC(=O)N3CCc4cc(Cn5nc(-c6ccc7oc(N)nc7c6)c6c(N)ncnc65)ccc4C3)[C@H](OC)C2)C[C@@H](O)[C@H](C)/C=C(\C)[C@@H](O)[C@@H](OC)C(=O)[C@H](C)C[C@H](C)/C=C/C=C/C=C/1C,,,patients with advanced solid tumours,"intravenous, 1.6 mg/3 mg weekly, any grade",,incidence of Fatigue TEAE,60%
CN(C(=O)n1cnc(-c2ccc[n+]([O-])c2)c1)C1CCCCC1,,,"Wistar rat, cerebellum","oral, 10 mg/kg, 24 h, single dose",,concentration,17.3 ± 0.4 ng/g
CCc1ccc(CC/C=C/c2ccc3c(c2)C(=O)CC3)cc1,,,"Sprague-Dawley rat, female, serum","oral, 120 mg/kg/day, 14 days",,chloride,105 mM
CC[C@H](C)[C@H](NC(=O)[C@H](Cc1ccccc1)NC(=O)[C@H](CCC(=O)O)NC(=O)[C@H](CCCNC(=N)N)NC(=O)[C@H](C)NC(=O)[C@H](C)NC(=O)[C@H](CCC(N)=O)NC(=O)[C@H](CCC(=O)O)NC(=O)[C@H](CCC(=O)O)NC(=O)[C@H](CC(C)C)NC(=O)[C@H](Cc1ccc(O)cc1)NC(=O)[C@H](CO)NC(=O)[C@H](CO)NC(=O)[C@@H](NC(=O)[C@H](CC(=O)O)NC(=O)[C@H](CO)NC(=O)[C@@H](NC(=O)[C@H](Cc1ccccc1)NC(=O)[C@@H](NC(=O)CNC(=O)[C@H](CCC(=O)O)NC(=O)[C@H](C)NC(=O)CCc1cnc[nH]1)[C@@H](C)O)[C@@H](C)O)C(C)C)C(=O)N[C@@H](C)C(=O)N[C@@H](Cc1c[nH]c2ccccc12)C(=O)N[C@@H](CC(C)C)C(=O)N[C@H](C(=O)N[C@@H](CCCNC(=N)N)C(=O)NCC(=O)N[C@@H](CCCNC(=N)N)C(=O)N[C@@H](CCCCNC(=O)COCCOCCNC(=O)COCCOCCNC(=O)CC[C@H](NC(=O)CCCCCCCCCCCCCCCCC(=O)O)C(=O)O)C(=O)NCC(=O)NCC(=O)N[C@@H](CO)C(=O)N[C@@H](CCCCNC(=O)[C@H](CCCCNC(=O)[C@H](CCCCNc1c(NCCCCCN(O)C(=O)CCC(=O)NCCCCCN(O)C(=O)CCC(=O)NCCCCCN(O)C(C)=O)c(=O)c1=O)Nc1c(NCCCCCN(O)C(=O)CCC(=O)NCCCCCN(O)C(=O)CCC(=O)NCCCCCN(O)C(C)=O)c(=O)c1=O)NC(=O)[C@H](CCCCNc1c(NCCCCCN(O)C(=O)CCC(=O)NCCCCCN(O)C(=O)CCC(=O)NCCCCCN(O)C(C)=O)c(=O)c1=O)Nc1c(NCCCCCN(O)C(=O)CCC(=O)NCCCCCN(O)C(=O)CCC(=O)NCCCCCN(O)C(C)=O)c(=O)c1=O)C(=O)O)C(C)C [zirconium-89 labelled],,ex vivo gamma counting,"Sprague-Dawley rat, male, pancreas","intravenous, 1 nmol, 24 h",,tissue uptake,0.433 %ID/g and 0.35 %ID/g and 0.331 %ID/g and 0.387 %ID/g and 0.346 %ID/g
Clc1ccc(-c2ccccc2)cc1,,,"Sprague-Dawley rats, female, serum","inhalation, 23 µg/rat, 0 h after exposure",,glucose,271 ± 71 mg/dL
CCOc1cc(Oc2ccc(C(F)(F)F)cc2Cl)ccc1[N+](=O)[O-],,,"rat, female","250 mg/kg, 4 days",,body weight gain,24.2%
CC(C)C[C@H](NC(=O)[C@H](CCCCN)NC(=O)OCC1c2ccccc2-c2ccccc21)C(=O)N[C@H](C(=O)N[C@@H](Cc1ccccc1)C(=O)N[C@@H](Cc1ccccc1)C(=O)N[C@@H](CCCCN)C(=O)NCC(=O)N[C@@H](Cc1ccccc1)C(=O)N[C@@H](C)C(=O)N[C@@H](Cc1c[nH]c2ccccc12)C(=O)N[C@@H](CC(N)=O)C(=O)N[C@H](C(=O)N[C@H]1CSSC[C@@H](C(=O)N[C@@H](Cc2c[nH]cn2)C(=O)N[C@@H](CCCNC(=N)N)C(=O)N[C@@H](CCCNC(=N)N)C(=O)N[C@@H](C)C(=O)N[C@@H](CC(N)=O)C(N)=O)NC(=O)[C@H](C(C)C)NC(=O)[C@H](CCCNC(=N)N)NC(=O)[C@H](C(C)C)NC(=O)CNC(=O)[C@H](CC(N)=O)NC(=O)[C@H](CCCNC(=N)N)NC(=O)[C@H](Cc2ccc(O)cc2)NC(=O)[C@H](C(C)C)NC1=O)C(C)C)C(C)C,,,ICR mouse,"ip, 10 mg/kg",direction not given,stimulus response score,0
CC(C)CC(=O)OC[C@H]1O[C@@](C#N)(c2ccc3c(N)ncnn23)[C@H](O)[C@@H]1O,,,"Sprague-Dawley rat, male, urine","80 mg/kg, time not given",baseline: dose,recovery in urine,0.00282%
NC(=O)[C@H]1CCN(c2ncnc(N)c2F)C[C@@H]1N1CCC[C@@H](Nc2cc(Cl)cc(C(F)(F)F)c2)C1=O,,,B-cell malignancy patients,"oral, 328 mg twice daily, dose",,grade ≥3 platelet decrease,0%
COc1ccnc(C(=O)N[C@H]2COC(=O)[C@H](Cc3ccccc3)[C@@H](OC(=O)C(C)C)[C@H](C)OC2=O)c1OCOC(=O)C(C)C,,,"Swiss Lake sand sediment, aerobic dark",20 °C,,DT50 water,0.56 days
C[C@]1(O)C[C@@](N)(c2ccc(-c3nc4n(c3-c3ccccc3)COc3ccncc3-4)cc2)C1,,,"human, advanced or metastatic solid tumours","16 mg once daily, dose-response cohort",,patients with Rash TEAE,0%
Clc1ccc(-c2c(Cl)ccc(Cl)c2Cl)cc1Cl,,,polyethylene-water partitioning,PCB compilation,baseline: maximum over minimum K,literature range factor,2
C[C@H]1CN(c2n[nH]c3nc(N[C@H]4CC[C@H](NS(=O)(=O)CCC(F)(F)F)CC4)ncc23)CCO1,"DDR1 (Homo sapiens, UniProt Q08345)","inhibitor, Kinobeads competition profiling",,0.032 µM,baseline: vehicle,relative abundance,1.03
O=C1Nc2cc3[nH]nc(-c4ccncc4)c3cc2CN1Cc1ccccc1,,measured: QTc prolongation,patients with advanced solid tumours,"intravenous, dose not given",,patients with TEAE,11%
COc1ccc([C@@H](O)c2cc(-c3ncnc4cc(N5CCOCC5)ccc34)c(F)cc2Cl)nn1,,,"patients, advanced solid tumours","oral, 200 mg twice daily, treatment-emergent, with: avelumab",,colitis incidence,10%
Clc1cc(Cl)c(-c2c(Cl)c(Cl)cc(Cl)c2Cl)cc1Cl,,,fresh water,20 °C,,log K(PDMS-water),6.76 ± 0.09
Cc1scc2c1N(C(=O)CN1CCN(C)CC1)c1ccccc1NC2=O,Plasmodium falciparum,,GB4,,,IC50,2 µM
O=S(=O)(Nc1ccccc1)c1ccc(NC(=S)Nc2ccccc2)cc1,,measured: Glu,"female mouse, blood","oral, 20 mg/kg daily, 14 days",,blood chemistry level,178 mg/dL
CC(C)(C)c1cc(C=C(C#N)C#N)cc(C(C)(C)C)c1O,Plasmodium falciparum,,GB4,,,IC50,0.93 µM
CSCC[C@H](NC(=O)[C@H](CCCCN)NC(=O)[C@H](CCCNC(=N)N)NC(=O)[C@H](CO)NC(=O)[C@H](Cc1c[nH]c2ccccc12)NC(=O)[C@H](CCCNC(=N)N)NC(=O)[C@H](CC(C)C)NC(=O)[C@H](CO)NC(C)=O)C(=O)N1CCC[C@H]1C(=O)N[C@@H](CS)C(=O)N[C@H](C(=O)N[C@@H](CO)C(N)=O)C(C)C,,"12G5 competition, SUP-T1 cells",human plasma,"20 µM, 2 h, 37 °C",,remaining activity,77 ± 9%
C[C@@H](NC(=O)N1C(=O)[C@H](Cc2ccnc(N)c2)[C@H]1C(=O)O)C1CCCCC1,,,healthy adult Chinese volunteers,"continuous intravenous infusion, 1.5 mg/kg/h, 5-day infusion, CTCAE 5.0 grading",,incidence of injection site erythema swelling,0%
COc1ccc(C[C@@H]2NC(=O)[C@H]([C@@H](C)O)NC(=O)[C@@H]3[C@@H]4CCN3C(=O)[C@@H]3Cc5cn(c6ccc(F)cc56)CCCCCCN(Cc5ccc(cc5)CCNC(=O)[C@]5(C)CCCN5C2=O)C(=O)CCC(=O)N[C@@H](C)C(=O)N[C@H](CNC(=O)CCCCC[N+](C)(C)C)C(=O)N[C@@H](Cc2cccc(c2)CNC(=O)CO4)C(=O)N3)cc1,,measured: throat irritation,human,dose not given,,participants with adverse event,2%
COc1cccc(-c2ccnc(Nc3ccc(N4CCN(C)CC4)c(C(F)(F)F)c3)n2)c1,,,Danio rerio embryos,"5 µM, 5 d",,toxicity,74 ± 26%
COc1cc2c(Oc3ccc4[nH]c(C)cc4c3F)ccnc2cc1OCC1(N)CC1,,,paediatric recurrent refractory sarcoma,10 mg,,grade 3 sinus bradycardia,0%
O=C(O)CCC(CP(=O)(O)O)C(=O)O (stereo not shown),,,processed derivatized rat plasma,"8 µg/mL, 18 h, 10 °C, autosampler, diluted 1:10",,measured concentration,8.14 ± 0.47 µg/mL
